Measurements of several laboratories.
Numbered parts are unrelated; each lists some results of a single study. Values joined by “and” are separate records of one study, mostly repeats; a detail may differ.
Chain of UniProt P22455 (whole entry, looked up): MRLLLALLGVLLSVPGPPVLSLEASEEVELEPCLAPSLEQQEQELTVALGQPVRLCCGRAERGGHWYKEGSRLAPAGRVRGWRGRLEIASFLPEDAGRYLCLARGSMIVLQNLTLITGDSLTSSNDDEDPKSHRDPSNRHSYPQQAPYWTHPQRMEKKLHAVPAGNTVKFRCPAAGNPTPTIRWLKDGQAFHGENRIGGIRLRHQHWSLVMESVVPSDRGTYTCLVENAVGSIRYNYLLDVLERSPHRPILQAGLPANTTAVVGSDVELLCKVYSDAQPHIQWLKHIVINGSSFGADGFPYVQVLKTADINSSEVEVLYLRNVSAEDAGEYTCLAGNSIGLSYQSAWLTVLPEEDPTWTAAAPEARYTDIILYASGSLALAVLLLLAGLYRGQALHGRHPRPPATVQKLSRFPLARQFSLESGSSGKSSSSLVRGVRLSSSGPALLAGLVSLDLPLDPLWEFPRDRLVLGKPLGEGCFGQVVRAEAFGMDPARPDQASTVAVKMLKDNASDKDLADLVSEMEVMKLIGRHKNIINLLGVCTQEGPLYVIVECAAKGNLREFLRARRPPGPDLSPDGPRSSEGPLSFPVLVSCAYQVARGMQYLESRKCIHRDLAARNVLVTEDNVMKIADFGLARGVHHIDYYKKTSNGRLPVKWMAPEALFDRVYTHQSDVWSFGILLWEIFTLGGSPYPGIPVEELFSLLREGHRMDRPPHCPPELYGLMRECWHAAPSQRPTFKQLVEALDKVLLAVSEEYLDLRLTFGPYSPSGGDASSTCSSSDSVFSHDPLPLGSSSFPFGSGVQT
Chain of UniProt P15056 (whole entry, looked up): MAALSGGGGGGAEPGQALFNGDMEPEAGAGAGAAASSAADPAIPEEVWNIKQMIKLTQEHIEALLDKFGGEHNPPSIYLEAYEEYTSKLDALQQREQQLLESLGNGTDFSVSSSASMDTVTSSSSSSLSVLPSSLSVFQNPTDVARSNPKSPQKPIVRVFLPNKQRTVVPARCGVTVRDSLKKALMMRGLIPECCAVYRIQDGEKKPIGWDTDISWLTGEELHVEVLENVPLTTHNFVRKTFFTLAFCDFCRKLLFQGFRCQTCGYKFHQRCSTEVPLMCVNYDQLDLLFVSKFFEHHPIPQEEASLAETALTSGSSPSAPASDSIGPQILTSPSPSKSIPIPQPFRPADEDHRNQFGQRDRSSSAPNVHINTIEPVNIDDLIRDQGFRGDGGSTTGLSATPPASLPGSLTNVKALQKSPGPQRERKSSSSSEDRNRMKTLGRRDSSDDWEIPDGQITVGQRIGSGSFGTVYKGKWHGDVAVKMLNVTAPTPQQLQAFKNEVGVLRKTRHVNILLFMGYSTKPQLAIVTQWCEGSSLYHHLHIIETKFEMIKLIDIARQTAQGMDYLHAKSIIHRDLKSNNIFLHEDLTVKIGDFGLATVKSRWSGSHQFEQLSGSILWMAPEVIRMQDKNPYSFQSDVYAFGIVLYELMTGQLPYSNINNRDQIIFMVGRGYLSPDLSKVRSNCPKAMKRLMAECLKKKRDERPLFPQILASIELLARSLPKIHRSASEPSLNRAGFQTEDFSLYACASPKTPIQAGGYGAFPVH

Study 1
Compound: CCCOc1ccc([C@@H]2[C@@H](C(=O)O)[C@H](c3ccc4c(c3)OCO4)CN2CC(=O)Nc2c(CC)cccc2CC)cc1
Technique: competition with immobilised ligand
Concentration: 1 µM
CDK14 (Homo sapiens, UniProt O94921); cell-free assay — remaining binding: 92%.
DAPK1 (Homo sapiens, UniProt P53355); cell-free assay — remaining binding: 83%.
For Myosin-IIIa (MYO3A, Homo sapiens, UniProt Q8NEV4); binding: remaining binding read 100%.
For TNK2 (Homo sapiens, UniProt Q07912); cell-free assay: remaining binding read 90%.
The remaining binding was 100% (NLK (Homo sapiens, UniProt Q9UBE8); cell-free assay).
It gave 100% for remaining binding (MYLK (Homo sapiens, UniProt Q15746); cell-free assay).
The remaining binding was 96% (BRAF (Homo sapiens, UniProt P15056); cell-free assay).
For FGFR4 (Homo sapiens, UniProt P22455); cell-free assay: remaining binding read 93%.
For MST1R (Homo sapiens, UniProt Q04912); cell-free assay: remaining binding read 91%.
The remaining binding was 100% (TESK1 (Homo sapiens, UniProt Q15569); cell-free assay).
For ROCK2 (Homo sapiens, UniProt O75116); cell-free assay: remaining binding read 84%.
CAMK2G (Homo sapiens, UniProt Q13555); cell-free assay — remaining binding: 88%.
It gave 69% for remaining binding (SGK3 (Homo sapiens, UniProt Q96BR1); cell-free assay).
For PRKAA2 (Homo sapiens, UniProt P54646); cell-free assay: remaining binding read 95%.
It gave 100% for remaining binding (MAP2K6 (Homo sapiens, UniProt P52564); cell-free assay).

Study 2
Compound: O=C1Nc2ccc(Br)cc2/C1=C/c1cc2c([nH]1)CCCC2
Read-out: enzyme activity
Action: inhibitor
Concentration: 0.5 µM
Reference: control
The remaining activity was 98.5% (CSK (Homo sapiens, UniProt P41240)).
It gave 93.4% for remaining activity (SGK1 (Homo sapiens, UniProt O00141)).
For GSK3A (Homo sapiens, UniProt P49840): remaining activity read 88.5%.
It gave 95.8% for remaining activity (GRK6 (Homo sapiens, UniProt P43250)).
It gave 49.7% for remaining activity (CSF1R (Homo sapiens, UniProt P07333)).
The remaining activity was 95.7% (MYLK (Homo sapiens, UniProt Q15746)).
PAK2 (Homo sapiens, UniProt Q13177) — remaining activity: 90%.
It gave 70.4% for remaining activity (RPS6KA1 (Homo sapiens, UniProt Q15418)).
It gave 3.86% for remaining activity (FLT3 (Homo sapiens, UniProt P36888)).
For SRPK3 (Homo sapiens, UniProt Q9UPE1): remaining activity read 77.8%.
It gave 89.9% for remaining activity (BMX (Homo sapiens, UniProt P51813)).
It gave 100% for remaining activity (PRKCG (Homo sapiens, UniProt P05129)).
GRK2 (Homo sapiens, UniProt P25098) — remaining activity: 105%.
The remaining activity was 77% (FGFR4 (Homo sapiens, UniProt P22455)).
Aurora kinase C (AURKC, Homo sapiens, UniProt Q9UQB9) — remaining activity: 86.3%.
For RPS6KB1 (Homo sapiens, UniProt P23443): remaining activity read 91.9%.
For PRKCE (Homo sapiens, UniProt Q02156): remaining activity read 99.1%.
EPHA7 (Homo sapiens, UniProt Q15375) — remaining activity: 85.3%.
It gave 27.7% for remaining activity (NUAK1 (Homo sapiens, UniProt O60285)).
The remaining activity was 85.4% (EPHB2 (Homo sapiens, UniProt P29323)).
It gave 100% for remaining activity (PIM2 (Homo sapiens, UniProt Q9P1W9)).

Study 3
SMILES: C=CCc1ccc(O)c(-c2ccc(O)c(CC=C)c2)c1
Read-out: chloride current
ANO1 del476-501/F628A: Anoctamin-1 (ANO1, Homo sapiens, UniProt Q5XXA6, del476-501/F628A)
Chain of UniProt Q5XXA6 (whole entry, unmodified, looked up): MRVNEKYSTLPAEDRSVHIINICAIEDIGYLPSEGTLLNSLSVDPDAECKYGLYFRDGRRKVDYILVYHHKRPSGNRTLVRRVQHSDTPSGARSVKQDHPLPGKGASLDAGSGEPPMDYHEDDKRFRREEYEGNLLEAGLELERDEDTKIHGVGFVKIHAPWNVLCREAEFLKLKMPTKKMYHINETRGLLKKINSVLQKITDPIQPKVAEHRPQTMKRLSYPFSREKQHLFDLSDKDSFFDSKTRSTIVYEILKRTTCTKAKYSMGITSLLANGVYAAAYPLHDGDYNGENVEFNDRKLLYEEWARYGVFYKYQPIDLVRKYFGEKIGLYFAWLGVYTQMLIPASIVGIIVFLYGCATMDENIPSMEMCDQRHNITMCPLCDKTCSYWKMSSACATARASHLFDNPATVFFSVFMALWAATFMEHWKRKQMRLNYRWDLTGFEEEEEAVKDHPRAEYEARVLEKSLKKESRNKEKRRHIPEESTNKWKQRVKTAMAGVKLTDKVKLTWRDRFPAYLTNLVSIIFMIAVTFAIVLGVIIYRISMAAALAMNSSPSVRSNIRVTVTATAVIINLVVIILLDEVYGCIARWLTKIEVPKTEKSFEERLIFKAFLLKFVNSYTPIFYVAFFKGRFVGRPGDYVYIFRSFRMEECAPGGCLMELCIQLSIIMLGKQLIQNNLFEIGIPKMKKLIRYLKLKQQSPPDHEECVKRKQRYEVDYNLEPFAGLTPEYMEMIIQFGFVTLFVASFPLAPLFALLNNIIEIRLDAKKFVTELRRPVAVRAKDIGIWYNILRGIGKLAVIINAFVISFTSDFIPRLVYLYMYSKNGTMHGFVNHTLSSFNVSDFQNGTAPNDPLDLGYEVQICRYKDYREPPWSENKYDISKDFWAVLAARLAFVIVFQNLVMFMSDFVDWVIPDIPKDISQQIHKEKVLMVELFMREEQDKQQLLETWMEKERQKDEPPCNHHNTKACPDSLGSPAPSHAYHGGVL
ANO1 del476-501/F803A: Anoctamin-1 (ANO1, Homo sapiens, UniProt Q5XXA6, del476-501/F803A)
ANO1 del476-501: Anoctamin-1 (ANO1, Homo sapiens, UniProt Q5XXA6, del476-501)
Anoctamin-1 (ANO1, Homo sapiens, UniProt Q5XXA6); inside-out patch clamp; 10 µM, membrane voltage -60 mV — normalized current: -0.436.
The normalized current was -0.0419 (ANO1 del476-501/F628A; whole-cell voltage clamp; 100 µM, I-V at -20 mV, with: 4 µM Ca2+).
It gave 0.168 for normalized current (ANO1 del476-501/F628A; whole-cell voltage clamp; 30 µM, I-V at 40 mV, with: 4 µM Ca2+).
It gave 0.78 for normalized current (ANO1 del476-501/F803A; inhibitor, whole-cell voltage clamp; 3 µM; reference: untreated).
It gave -0.0264 for normalized current (ANO1 del476-501; whole-cell voltage clamp; 30 µM, wild type, concentration-response at -40 mV, with: 4 µM Ca2+).
For ANO1 del476-501; whole-cell voltage clamp; 3 µM, wild type, concentration-response at 40 mV, with: 4 µM Ca2+: normalized current read 0.298.
For ANO1 del476-501; whole-cell voltage clamp; 30 µM, wild type, I-V at -100 mV, with: 4 µM Ca2+: normalized current read -0.0554.
For ANO1 del476-501; whole-cell voltage clamp; 10 µM, wild type, concentration-response at -80 mV, with: 4 µM Ca2+: normalized current read -0.209.
It gave -0.22 for normalized current (ANO1 del476-501; whole-cell voltage clamp; 10 µM, wild type, I-V at -80 mV, with: 4 µM Ca2+).
For ANO1 del476-501; whole-cell voltage clamp; 10 µM, wild type, I-V at -60 mV, with: 4 µM Ca2+: normalized current read -0.176.
ANO1 del476-501; whole-cell voltage clamp; 30 µM, wild type, I-V at 100 mV, with: 4 µM Ca2+ — normalized current: 0.0753.
ANO1 del476-501; whole-cell voltage clamp; 1 µM, wild type, concentration-response at -20 mV, with: 4 µM Ca2+ — normalized current: -0.174.
The normalized current was -0.455 (Anoctamin-1 (ANO1, Homo sapiens, UniProt Q5XXA6, del476-501/E649A/R541A); inhibitor, inside-out patch clamp; 10 µM, R515A/E623A mutant at -100 mV).
ANO1 del476-501; whole-cell voltage clamp; 30 µM, wild type, I-V at 40 mV, with: 4 µM Ca2+ — normalized current: 0.0268.
The normalized current was -0.0127 (ANO1 del476-501; whole-cell voltage clamp; 30 µM, wild type, I-V at -20 mV, with: 4 µM Ca2+).
The normalized current was -0.053 (ANO1 del476-501; whole-cell voltage clamp; 30 µM, wild type, I-V at -80 mV, with: 4 µM Ca2+).
It gave 0.38 for normalized current (ANO1 del476-501/F628A; whole-cell voltage clamp; 1 µM, concentration-response at 40 mV, with: 4 µM Ca2+).
The normalized current was -0.0524 (ANO1 del476-501; whole-cell voltage clamp; 30 µM, wild type, concentration-response at -100 mV, with: 4 µM Ca2+).
The normalized current was -0.433 (ANO1 del476-501; whole-cell voltage clamp; 3 µM, wild type, concentration-response at -60 mV, with: 4 µM Ca2+).
The normalized current was 0.786 (ANO1 del476-501; whole-cell voltage clamp; 3 µM, wild type, I-V at 100 mV, with: 4 µM Ca2+).
It gave 0.581 for normalized current (ANO1 del476-501/F803A; inhibitor, whole-cell voltage clamp; 10 µM; reference: untreated).

Study 4
Target: DNA polymerase theta, helicase domain (POLQ, Homo sapiens, UniProt O75417)
Chain of UniProt O75417 (whole entry, looked up): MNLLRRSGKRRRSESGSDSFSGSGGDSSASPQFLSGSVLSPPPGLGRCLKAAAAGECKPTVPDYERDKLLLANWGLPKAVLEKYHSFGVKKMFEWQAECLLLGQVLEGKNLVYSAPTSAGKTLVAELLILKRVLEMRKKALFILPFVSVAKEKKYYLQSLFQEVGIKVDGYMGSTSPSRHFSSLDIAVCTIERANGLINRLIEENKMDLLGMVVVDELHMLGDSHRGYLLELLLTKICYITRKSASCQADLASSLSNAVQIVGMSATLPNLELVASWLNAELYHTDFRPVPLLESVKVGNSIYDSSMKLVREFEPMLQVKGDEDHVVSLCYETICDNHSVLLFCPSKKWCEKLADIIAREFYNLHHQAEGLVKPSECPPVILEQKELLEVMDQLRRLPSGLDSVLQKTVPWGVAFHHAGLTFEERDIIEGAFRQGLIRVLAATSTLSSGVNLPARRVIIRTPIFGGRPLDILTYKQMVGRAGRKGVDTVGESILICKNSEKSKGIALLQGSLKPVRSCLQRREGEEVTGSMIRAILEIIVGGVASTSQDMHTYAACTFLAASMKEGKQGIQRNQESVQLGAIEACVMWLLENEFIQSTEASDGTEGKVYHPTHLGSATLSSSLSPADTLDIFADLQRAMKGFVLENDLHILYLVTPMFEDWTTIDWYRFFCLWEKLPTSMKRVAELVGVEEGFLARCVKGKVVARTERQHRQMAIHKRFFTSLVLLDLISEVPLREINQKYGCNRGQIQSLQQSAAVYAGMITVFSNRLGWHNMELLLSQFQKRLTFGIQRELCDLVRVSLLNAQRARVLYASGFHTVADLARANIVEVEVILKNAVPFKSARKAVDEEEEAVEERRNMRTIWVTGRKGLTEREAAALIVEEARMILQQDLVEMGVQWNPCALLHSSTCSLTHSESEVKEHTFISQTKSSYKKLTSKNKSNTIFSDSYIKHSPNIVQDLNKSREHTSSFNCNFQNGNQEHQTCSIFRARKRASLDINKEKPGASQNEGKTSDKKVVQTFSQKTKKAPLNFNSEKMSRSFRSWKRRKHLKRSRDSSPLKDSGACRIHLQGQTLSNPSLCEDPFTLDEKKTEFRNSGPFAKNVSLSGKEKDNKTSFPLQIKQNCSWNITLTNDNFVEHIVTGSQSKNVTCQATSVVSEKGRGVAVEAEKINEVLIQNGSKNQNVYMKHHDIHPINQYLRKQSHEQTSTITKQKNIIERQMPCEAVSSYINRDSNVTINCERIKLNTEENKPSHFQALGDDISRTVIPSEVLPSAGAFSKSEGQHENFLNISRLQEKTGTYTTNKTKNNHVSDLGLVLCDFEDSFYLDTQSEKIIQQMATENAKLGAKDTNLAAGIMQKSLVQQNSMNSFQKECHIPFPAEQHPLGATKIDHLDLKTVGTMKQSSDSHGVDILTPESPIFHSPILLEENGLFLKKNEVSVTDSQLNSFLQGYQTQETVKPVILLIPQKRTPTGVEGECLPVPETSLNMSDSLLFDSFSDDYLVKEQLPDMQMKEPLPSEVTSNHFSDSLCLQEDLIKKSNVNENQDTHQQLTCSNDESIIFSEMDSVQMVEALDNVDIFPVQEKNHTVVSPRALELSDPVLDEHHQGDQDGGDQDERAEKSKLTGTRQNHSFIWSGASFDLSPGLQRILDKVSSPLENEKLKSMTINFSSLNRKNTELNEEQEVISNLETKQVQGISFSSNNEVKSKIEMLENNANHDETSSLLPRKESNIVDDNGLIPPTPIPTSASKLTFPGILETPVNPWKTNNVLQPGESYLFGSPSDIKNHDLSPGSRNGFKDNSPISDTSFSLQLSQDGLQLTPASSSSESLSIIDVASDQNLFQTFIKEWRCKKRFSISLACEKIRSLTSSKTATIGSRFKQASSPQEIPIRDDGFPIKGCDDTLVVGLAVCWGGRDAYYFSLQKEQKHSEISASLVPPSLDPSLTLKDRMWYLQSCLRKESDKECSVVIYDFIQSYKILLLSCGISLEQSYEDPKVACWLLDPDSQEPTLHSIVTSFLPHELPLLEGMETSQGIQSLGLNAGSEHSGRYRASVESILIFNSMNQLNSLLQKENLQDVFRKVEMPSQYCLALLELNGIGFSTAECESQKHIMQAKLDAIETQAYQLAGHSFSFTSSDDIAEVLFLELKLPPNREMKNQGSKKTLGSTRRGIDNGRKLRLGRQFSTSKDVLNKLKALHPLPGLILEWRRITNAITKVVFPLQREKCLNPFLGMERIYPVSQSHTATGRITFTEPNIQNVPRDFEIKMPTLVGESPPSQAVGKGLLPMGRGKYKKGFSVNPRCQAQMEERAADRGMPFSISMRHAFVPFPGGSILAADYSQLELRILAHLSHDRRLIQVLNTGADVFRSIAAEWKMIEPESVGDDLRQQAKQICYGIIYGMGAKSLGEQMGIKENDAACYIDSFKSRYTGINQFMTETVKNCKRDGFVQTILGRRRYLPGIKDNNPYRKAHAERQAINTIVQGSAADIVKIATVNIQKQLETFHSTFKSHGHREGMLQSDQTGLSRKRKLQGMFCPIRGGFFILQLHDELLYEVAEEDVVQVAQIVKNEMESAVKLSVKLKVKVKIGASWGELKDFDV
Action: inhibitor
Concentration: concentration not given
With: with ssDNA
The remaining activity of `O=c1[nH]c2cc(Cl)ccc2c(O)c1-c1cccc(Oc2ccccc2)c1` is reported as 74% and 72.3%.
`O=C(Nc1noc2ccccc12)c1ccc(F)cc1` has a remaining activity of 50.3% and 46.9%.
The remaining activity of `CCOc1ccccc1NC(=O)CSc1ncc(S(=O)(=O)c2ccc(C(C)(C)C)cc2)c(=O)[nH]1` is reported as 68.5% and 70.9%.
For `CCC(C)(Oc1ccc(C2(c3ccc(OC(C)(CC)C(=O)O)cc3)CCCCC2)cc1)C(=O)O` (centres unmarked), the remaining activity was 68.7% and 63.7%.
`COc1ccc(S(=O)(=O)c2cnc(SCC(=O)Nc3cc(F)ccc3C)[nH]c2=O)cc1Cl` gave a remaining activity of 55.8% and 60%.
`N#Cc1c(O)c2c(-c3ccc(-c4ccccc4O)cc3)csc2[nH]c1=O` has a remaining activity of 51% and 50.5%.
`O=C(O)[C@]1(Cc2cccc(Nc3nccs3)n2)CC[C@@H](Oc2cccc(Cl)c2F)CC1` has a remaining activity of 55.8% and 55.5%.
With `N#CSc1cc(SC#N)c(N)nc1N` the remaining activity was 26.1% and 25.1%.
For `Cc1nc(N=Nc2cc(S(=O)(=O)O)c3cc([N+](=O)[O-])cc(S(=O)(=O)O)c3c2)c(COP(=O)(O)O)c(C=O)c1O`, the remaining activity was 45.9% and 47.3%.
For `CC(=O)Oc1ccccc1C(=O)Nc1ncc([N+](=O)[O-])s1`, the remaining activity was 46.3% and 47.3%.
`CC(C)(C)c1ccc(S(=O)(=O)c2cnc(SCC(=O)Nc3ccc4c(c3)OCCO4)[nH]c2=O)cc1` has a remaining activity of 70.1% and 63.4%.

Excerpt of the above (study 1):
For TNK2 (Homo sapiens, UniProt Q07912); cell-free assay: remaining binding read 90%.
The remaining binding was 100% (NLK (Homo sapiens, UniProt Q9UBE8); cell-free assay).
It gave 100% for remaining binding (MYLK (Homo sapiens, UniProt Q15746); cell-free assay).
The remaining binding was 96% (BRAF (Homo sapiens, UniProt P15056); cell-free assay).
For FGFR4 (Homo sapiens, UniProt P22455); cell-free assay: remaining binding read 93%.
For MST1R (Homo sapiens, UniProt Q04912); cell-free assay: remaining binding read 91%.
The remaining binding was 100% (TESK1 (Homo sapiens, UniProt Q15569); cell-free assay).
For ROCK2 (Homo sapiens, UniProt O75116); cell-free assay: remaining binding read 84%.
CAMK2G (Homo sapiens, UniProt Q13555); cell-free assay — remaining binding: 88%.
It gave 69% for remaining binding (SGK3 (Homo sapiens, UniProt Q96BR1); cell-free assay).
